Experimental data gathered from unrelated publications.
Protocols differ between the studies behind these lines. ± marks the error that the study gave.
OPRK1: Kappa-type opioid receptor (OPRK1, Homo sapiens, UniProt P41145)
cyp121: Mycocyclosin synthase (cyp121, Mycobacterium tuberculosis, UniProt P9WPP7)
OPRM1 with beta-arrestin-2: Mu-type opioid receptor, with beta-arrestin-2 (OPRM1, Homo sapiens, UniProt P35372)
Slc6a3: Sodium-dependent dopamine transporter (Slc6a3, Rattus norvegicus, UniProt P23977)
OPRM1: Mu-type opioid receptor (OPRM1, Homo sapiens, UniProt P35372)

Chains of the proteins cited; added tags and fusions are not shown. Lines headed by an entry give the natural chain unless they say otherwise; changes in a name come on top. Residues count along the entry.
UniProt P41145, whole entry: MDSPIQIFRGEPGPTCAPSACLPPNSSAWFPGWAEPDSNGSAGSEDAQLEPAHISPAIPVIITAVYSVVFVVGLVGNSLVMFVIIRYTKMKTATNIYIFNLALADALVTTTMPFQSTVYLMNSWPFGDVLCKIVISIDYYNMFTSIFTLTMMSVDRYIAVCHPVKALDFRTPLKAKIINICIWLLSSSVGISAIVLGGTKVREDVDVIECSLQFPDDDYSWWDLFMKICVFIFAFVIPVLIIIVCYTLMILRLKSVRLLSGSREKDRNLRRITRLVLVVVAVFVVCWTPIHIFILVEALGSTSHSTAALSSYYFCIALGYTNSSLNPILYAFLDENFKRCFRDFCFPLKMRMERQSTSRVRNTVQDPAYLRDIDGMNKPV
UniProt P9WPP7, whole entry: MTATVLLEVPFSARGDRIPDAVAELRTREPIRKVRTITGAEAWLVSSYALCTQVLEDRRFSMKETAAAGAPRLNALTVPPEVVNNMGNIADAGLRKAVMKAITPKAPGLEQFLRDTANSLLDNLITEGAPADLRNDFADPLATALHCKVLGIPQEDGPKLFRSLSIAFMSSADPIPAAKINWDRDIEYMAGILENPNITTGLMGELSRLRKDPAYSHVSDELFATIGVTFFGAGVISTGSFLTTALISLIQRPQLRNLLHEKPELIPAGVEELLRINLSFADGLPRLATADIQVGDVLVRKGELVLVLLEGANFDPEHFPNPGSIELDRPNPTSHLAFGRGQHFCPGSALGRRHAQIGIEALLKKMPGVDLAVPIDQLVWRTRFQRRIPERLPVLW
UniProt P35372, whole entry: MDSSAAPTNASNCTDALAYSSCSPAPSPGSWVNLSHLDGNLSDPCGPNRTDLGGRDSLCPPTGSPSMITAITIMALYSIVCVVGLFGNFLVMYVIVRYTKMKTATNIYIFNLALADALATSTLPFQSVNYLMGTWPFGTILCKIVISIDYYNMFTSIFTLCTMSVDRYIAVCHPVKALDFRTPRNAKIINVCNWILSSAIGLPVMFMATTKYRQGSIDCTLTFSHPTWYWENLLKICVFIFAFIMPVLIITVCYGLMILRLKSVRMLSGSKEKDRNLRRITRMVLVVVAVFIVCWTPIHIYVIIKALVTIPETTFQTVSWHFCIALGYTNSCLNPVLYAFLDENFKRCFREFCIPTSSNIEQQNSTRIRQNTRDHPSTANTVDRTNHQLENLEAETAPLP
UniProt P23977, whole entry: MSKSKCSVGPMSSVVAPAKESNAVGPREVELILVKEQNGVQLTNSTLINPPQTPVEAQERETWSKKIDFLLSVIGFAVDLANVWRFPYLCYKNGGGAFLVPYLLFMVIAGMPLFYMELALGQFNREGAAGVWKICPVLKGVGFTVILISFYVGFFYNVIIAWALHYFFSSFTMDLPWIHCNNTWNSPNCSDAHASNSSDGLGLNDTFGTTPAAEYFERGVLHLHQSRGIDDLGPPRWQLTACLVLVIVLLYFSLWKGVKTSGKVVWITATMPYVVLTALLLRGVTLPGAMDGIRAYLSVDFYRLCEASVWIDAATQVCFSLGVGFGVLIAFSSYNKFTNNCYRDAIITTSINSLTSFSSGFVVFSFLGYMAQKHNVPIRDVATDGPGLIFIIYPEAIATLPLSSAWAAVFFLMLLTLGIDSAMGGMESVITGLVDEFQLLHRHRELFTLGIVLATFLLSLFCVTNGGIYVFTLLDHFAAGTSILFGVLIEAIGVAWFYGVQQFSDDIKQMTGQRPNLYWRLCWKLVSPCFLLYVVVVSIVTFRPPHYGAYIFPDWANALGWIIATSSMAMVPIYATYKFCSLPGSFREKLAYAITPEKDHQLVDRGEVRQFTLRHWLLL
UniProt P14867, 28-456 L291T limits assumed: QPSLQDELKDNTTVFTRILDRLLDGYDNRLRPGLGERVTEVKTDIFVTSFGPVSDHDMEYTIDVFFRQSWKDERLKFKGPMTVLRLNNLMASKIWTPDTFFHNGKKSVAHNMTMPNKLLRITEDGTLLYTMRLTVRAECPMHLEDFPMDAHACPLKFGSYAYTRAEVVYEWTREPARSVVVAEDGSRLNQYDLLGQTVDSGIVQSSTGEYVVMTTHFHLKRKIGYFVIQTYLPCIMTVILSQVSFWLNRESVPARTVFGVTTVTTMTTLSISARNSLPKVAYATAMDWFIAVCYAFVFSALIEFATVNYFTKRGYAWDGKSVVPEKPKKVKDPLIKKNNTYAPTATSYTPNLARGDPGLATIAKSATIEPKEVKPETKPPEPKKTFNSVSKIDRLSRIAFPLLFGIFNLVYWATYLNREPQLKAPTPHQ
UniProt P28472, 26-473 limits assumed, stated change not applied: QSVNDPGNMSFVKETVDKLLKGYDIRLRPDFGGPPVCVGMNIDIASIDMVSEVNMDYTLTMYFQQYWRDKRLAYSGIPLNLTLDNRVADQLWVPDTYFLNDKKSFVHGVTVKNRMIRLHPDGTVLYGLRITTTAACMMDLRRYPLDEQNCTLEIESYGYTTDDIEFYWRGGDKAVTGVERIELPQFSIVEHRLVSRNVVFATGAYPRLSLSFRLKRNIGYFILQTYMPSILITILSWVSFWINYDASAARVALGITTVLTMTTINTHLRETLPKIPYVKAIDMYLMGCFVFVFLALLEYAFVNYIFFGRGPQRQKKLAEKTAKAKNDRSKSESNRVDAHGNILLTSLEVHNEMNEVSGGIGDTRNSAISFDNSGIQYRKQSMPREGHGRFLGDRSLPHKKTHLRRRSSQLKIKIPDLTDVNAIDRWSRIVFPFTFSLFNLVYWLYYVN
UniProt P34969, whole entry: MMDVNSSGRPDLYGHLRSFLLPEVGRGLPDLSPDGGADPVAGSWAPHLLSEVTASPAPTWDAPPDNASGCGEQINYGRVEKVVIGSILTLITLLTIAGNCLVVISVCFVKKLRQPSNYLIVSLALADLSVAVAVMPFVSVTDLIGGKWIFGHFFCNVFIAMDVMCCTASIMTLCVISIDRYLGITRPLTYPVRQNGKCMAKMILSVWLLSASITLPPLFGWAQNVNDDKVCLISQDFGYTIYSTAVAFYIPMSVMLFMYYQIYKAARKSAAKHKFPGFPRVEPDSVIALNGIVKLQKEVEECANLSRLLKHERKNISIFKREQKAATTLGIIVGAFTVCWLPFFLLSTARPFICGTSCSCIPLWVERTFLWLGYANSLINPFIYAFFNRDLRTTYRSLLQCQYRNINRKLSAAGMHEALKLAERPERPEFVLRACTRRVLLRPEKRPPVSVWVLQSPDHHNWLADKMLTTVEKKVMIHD
UniProt P30872, whole entry: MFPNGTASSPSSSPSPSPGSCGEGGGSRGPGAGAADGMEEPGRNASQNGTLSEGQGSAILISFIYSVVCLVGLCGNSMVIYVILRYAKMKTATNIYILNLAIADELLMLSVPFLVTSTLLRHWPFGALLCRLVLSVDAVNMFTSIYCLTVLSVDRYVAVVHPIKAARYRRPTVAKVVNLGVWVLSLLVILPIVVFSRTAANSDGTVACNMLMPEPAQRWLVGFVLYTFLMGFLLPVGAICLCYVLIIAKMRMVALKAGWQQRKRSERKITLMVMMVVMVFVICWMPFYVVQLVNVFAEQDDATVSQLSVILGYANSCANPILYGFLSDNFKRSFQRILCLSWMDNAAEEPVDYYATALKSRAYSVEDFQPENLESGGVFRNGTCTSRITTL
UniProt P9WGR1, whole entry: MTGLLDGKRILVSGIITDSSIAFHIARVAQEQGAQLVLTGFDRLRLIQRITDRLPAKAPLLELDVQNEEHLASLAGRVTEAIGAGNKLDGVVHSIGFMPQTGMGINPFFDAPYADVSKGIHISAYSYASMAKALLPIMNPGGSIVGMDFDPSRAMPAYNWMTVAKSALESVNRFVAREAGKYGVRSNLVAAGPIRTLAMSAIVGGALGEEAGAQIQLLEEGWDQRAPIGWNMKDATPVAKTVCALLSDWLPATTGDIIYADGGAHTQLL
UniProt P06241, whole entry, looked up: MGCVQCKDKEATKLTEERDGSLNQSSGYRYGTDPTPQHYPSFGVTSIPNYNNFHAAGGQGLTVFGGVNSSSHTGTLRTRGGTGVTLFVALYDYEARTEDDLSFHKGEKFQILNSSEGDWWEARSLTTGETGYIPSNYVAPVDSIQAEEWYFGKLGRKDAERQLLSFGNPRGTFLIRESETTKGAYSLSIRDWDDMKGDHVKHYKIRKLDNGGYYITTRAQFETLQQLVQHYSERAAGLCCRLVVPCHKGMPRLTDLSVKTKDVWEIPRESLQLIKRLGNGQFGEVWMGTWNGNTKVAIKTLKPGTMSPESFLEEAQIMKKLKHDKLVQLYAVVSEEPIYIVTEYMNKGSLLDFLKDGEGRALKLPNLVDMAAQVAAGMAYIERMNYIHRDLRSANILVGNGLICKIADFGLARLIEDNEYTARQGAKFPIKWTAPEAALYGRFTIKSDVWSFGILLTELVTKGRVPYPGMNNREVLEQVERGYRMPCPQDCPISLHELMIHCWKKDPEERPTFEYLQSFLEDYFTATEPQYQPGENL
UniProt P06241, whole entry M250P/L253P/T254P, looked up: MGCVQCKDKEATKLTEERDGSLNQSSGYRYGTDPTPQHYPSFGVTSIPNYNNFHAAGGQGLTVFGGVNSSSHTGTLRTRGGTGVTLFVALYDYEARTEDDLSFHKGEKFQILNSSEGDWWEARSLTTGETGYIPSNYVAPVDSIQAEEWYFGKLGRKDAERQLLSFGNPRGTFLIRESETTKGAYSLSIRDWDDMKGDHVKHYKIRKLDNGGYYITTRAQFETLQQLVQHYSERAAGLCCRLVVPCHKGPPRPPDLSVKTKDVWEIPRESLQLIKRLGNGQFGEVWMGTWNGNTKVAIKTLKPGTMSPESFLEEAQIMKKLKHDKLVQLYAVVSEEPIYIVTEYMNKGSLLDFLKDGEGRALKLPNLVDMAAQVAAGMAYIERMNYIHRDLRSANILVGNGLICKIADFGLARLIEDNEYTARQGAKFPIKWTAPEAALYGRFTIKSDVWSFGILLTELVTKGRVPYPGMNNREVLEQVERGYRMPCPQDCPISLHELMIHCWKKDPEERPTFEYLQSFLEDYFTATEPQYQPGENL
UniProt P18507, 40-475 partner limits assumed: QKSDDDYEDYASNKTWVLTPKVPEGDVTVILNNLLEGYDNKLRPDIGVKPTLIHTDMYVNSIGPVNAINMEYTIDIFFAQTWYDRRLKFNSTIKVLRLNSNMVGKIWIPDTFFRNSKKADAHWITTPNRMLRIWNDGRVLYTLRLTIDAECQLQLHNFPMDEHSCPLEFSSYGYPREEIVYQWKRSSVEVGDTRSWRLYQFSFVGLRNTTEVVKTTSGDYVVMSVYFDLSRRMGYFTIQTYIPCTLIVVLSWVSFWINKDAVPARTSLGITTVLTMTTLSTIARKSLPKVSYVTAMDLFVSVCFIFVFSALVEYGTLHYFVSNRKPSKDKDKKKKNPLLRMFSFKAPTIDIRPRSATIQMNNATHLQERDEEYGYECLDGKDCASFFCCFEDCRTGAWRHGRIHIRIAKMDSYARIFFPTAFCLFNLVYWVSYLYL

Structure (SMILES)	target or system	assay	test system	conditions	how to read	measurement	result
COC(=O)[C@@H]1C=C(OC(=O)c2cccc(O)c2)C(=O)[C@H]2[C@@]1(C)CC[C@H]1C(=O)O[C@H](c3ccoc3)C[C@]21C	OPRK1	forskolin-induced cAMP inhibition, agonist	CHO-K1 expressing human KOR			EC50	> 10000 nM
CCOC(=O)c1cncn1[C@@H](C)c1c(F)c(F)c(F)c(F)c1F	GABA-A receptor alpha-1/beta-3, with gamma-2 subunit (GABRA1/GABRB3, Homo sapiens, UniProt P14867+P28472, L291T)	ion current, agonist, two-electrode voltage clamp	Xenopus laevis oocytes		reference: 100 µM GABA	EC50	166000 ± 25000 nM
COc1ccc(CN[C@@H]2CO[C@H](C(c3ccccc3)c3ccccc3)C[C@H]2O)cc1	5-hydroxytryptamine receptor 7 (HTR7, Homo sapiens, UniProt P34969)	radioligand binding		10 µM, with: [3H]LSD		inhibition	15.6%
CC(C)C[C@H](NC(=O)[C@@H]1C[C@@H](O)CN1C(=O)[C@@H]1CSSC[C@H](NC(=O)[C@@H](NC(=O)[C@@H]2CCCN2)C(C)C)C(=O)N[C@H](Cc2c[nH]c3ccccc23)C(=O)N[C@@H](CCCCN)C(=O)N[C@@H](Cc2ccccc2)C(=O)NCC(=O)N1)C(=O)O	Somatostatin receptor type 1 (SSTR1, Homo sapiens, UniProt P30872)	β-arrestin recruitment, agonist				EC50	3800 nM
CC(CCN[C@H](CN[C@H](CO)CN1CCC[C@H]1CN[C@H](CN)c1ccccc1)c1ccccc1)c1ccccc1 (some centres unmarked)	Klebsiella pneumoniae	bacterial growth		compound alone		IC90	> 24000 nM
C[C@H](CS)C(=O)N[C@@H](Cc1c[nH]c2ccccc12)C(=O)O	Enterobacter aerogenes		VIM-1 producing	25 µM, with: meropenem		MIC of meropenem	16 µg/mL
CCC(c1ccc(-c2ccc(O)cc2)cc1F)n1ccnc1 (centres unmarked)	cyp121	binding				Kd	3800 ± 850 nM
Oc1cc(Cn2cc(C3CC3)nn2)ccc1Oc1ccccc1Cl	Enoyl-[acyl-carrier-protein] reductase [NADH] (inhA, Mycobacterium tuberculosis, UniProt P9WGR1)	enzyme activity, slow-onset inhibitor		20 °C, final EI* complex		Ki	68 ± 9 nM
C=CC(=O)Nc1cc(-n2c(=O)ccc3cnc4ccc(-c5cn[nH]c5)cc4c32)ccc1C	MOLM-14	cell growth				GI50	~1000 nM
O=C(NC1CCN(c2ncnc3[nH]cnc23)CC1)c1cccc(S(=O)(=O)Nc2ccc(Cl)cc2)c1	A549-ACE2			200 µM		viability	73.6%
NCCNCCSc1ccccc1		spectrophotometry		pH 6.6		pKa	6.24
CCC(c1ccc(-c2ccc(O)c(C)c2)cc1)n1ccnc1 (centres unmarked)	cyp121	binding				Kd	6500 ± 2700 nM
CC(C)n1nc(-c2ccc3cc(OCc4cccc(Cl)c4)ccc3c2)c2c(N)ncnc21	Tyrosine-protein kinase Fyn (FYN, Homo sapiens, UniProt P06241, G531I/P530I/Q529E)	inhibitor				Ki	220 nM
COC(=O)[C@@H]1C=C(OC(=O)c2ccc(O)cc2)C(=O)[C@H]2[C@@]1(C)CC[C@H]1C(=O)O[C@H](c3ccoc3)C[C@]21C	OPRM1 with beta-arrestin-2	β-arrestin-2 recruitment, agonist, PathHunter	CHO-K1			EC50	21 ± 4 nM
Cc1ccccc1S(=O)(=O)Nc1cccc(C(=O)NC2CCN(c3ncnc4[nH]cnc34)CC2)c1	A549-ACE2			22.22 µM		viability	93.4%
CC(C)n1nc(-c2ccc3c(c2)OCO3)c2c(N)ncnc21	Tyrosine-protein kinase Fyn (FYN, Homo sapiens, UniProt P06241, S254P/T250P/T253P)	inhibitor				Ki	190 nM
c1ccc(-c2ccc(Cn3ccnc3)s2)cc1	cyp121	binding				Kd	19600 ± 4400 nM
Nc1ncnc2c1c(-c1cnc3[nH]ccc3c1)nn2C1CCCC1	Tyrosine-protein kinase Fyn (FYN, Homo sapiens, UniProt P06241, L253P/M250P/T254P)	inhibitor				Ki	7.5 nM

Structure (SMILES)	target or system	assay	test system	conditions	how to read	measurement	result
CCC(c1ccc(-c2ccc(F)c(F)c2)cc1)n1ccnc1 (centres unmarked)	cyp121	binding				Kd	4100 ± 910 nM
COC(=O)[C@@H]1C=C(OC(=O)c2ccc(O)c(Br)c2)C(=O)[C@H]2[C@@]1(C)CC[C@H]1C(=O)O[C@H](c3ccoc3)C[C@]21C	OPRM1 with beta-arrestin-2	β-arrestin-2 recruitment, agonist, PathHunter	CHO-K1			EC50	1600 ± 300 nM
CCNC(C)Cc1ccc2c(c1)OCO2 (centres unmarked)	Slc6a3	dopamine release, releaser	rat brain synaptosomes			EC50	622 ± 121 nM
CN1CC[C@]23c4c5ccc(O)c4O[C@H]2c2ncc(-c4ccc(Cl)cc4)cc2C[C@@]3(OCCCc2ccccc2)[C@H]1C5	OPRM1	agonist				EC50	0.2 ± 0.01 nM
CC(C)n1nc(-c2ccc3cc(OCc4ccccc4)ccc3c2)c2c(N)ncnc21	Tyrosine-protein kinase Fyn (FYN, Homo sapiens, UniProt P06241, G534I/P533E/Q532E)	inhibitor				Ki	120 nM
CC(=O)NC1C(O)CC(OC(CO)C(O)C2OC(OC(CO)C(O)C3OC(OC4C(O)C(OC5C(CO)OC(O)C(O)C5O)OC(CO)C4OC4OC(CO)C(O)C(OC5OC(CO)C(O)C(O)C5O)C4NC(C)=O)(C(=O)O)CC(O)C3NC(C)=O)(C(=O)O)CC(O)C2NC(C)=O)(C(=O)O)OC1C(O)C(O)CO (centres unmarked)	hly (Listeria monocytogenes, UniProt P13128)	binding		pH 7		Kd	97.1 nM
CCC(c1ccc(-c2ccc3[nH]ccc3c2)cc1)n1ccnc1 (centres unmarked)	cyp121	binding				Kd	2900 ± 1200 nM
COC(=O)[C@@H]1C=C(OC(=O)c2ccc(CO)cc2)C(=O)[C@H]2[C@@]1(C)CC[C@H]1C(=O)O[C@H](c3ccoc3)C[C@]21C	OPRK1	forskolin-induced cAMP inhibition, agonist	CHO-K1 expressing human KOR			EC50	> 10000 nM
CC(=O)NC1C(OC2C(CO)OC(OC3C(CO)OC(O)C(O)C3O)C(O)C2O)OC(CO)C(O)C1OC1OC(CO)C(O)C(O)C1O (centres unmarked)	hly, domain 4 (Listeria monocytogenes, UniProt P13128)	binding				Kd	462 nM
c1ccc(-c2ccc(Cn3ccnc3)o2)cc1	cyp121	binding				Kd	33700 ± 5600 nM
CC(C)C[C@@H](NC(=O)[C@H](NC(=O)[C@H]1CCCN1)[C@H](C)O)C(=O)N[C@H](Cc1c[nH]cn1)C(=O)N[C@@H](C(=O)N[C@H](Cc1c[nH]cn1)C(=O)N[C@H](CC(N)=O)C(=O)N[C@H](CCCNC(=N)N)C(=O)N[C@H](CCCNC(=N)N)C(=O)N[C@H](CCCNC(=N)N)C(=O)N[C@H](CCCNC(=N)N)C(=O)N[C@H](CCCNC(=N)N)C(N)=O)[C@H](C)O			healthy human, fasted, plasma	oral, dose not given		earliest Tmax	30 min
COC(=O)[C@@H]1C=C(OC(=O)c2ccc(O)c(F)c2)C(=O)[C@H]2[C@@]1(C)CC[C@H]1C(=O)O[C@H](c3ccoc3)C[C@]21C	OPRM1	forskolin-induced cAMP inhibition, agonist	CHO-K1 expressing human MOR			EC50	0.6 ± 0.2 nM
CCC(c1ccc(-c2cscc2C)cc1F)n1ccnc1 (centres unmarked)	cyp121	binding				Kd	9000 ± 1300 nM
COCc1ccc(C(=O)OC2=C[C@@H](C(=O)OC)[C@]3(C)CC[C@H]4C(=O)O[C@H](c5ccoc5)C[C@]4(C)[C@H]3C2=O)cc1	OPRK1	forskolin-induced cAMP inhibition, agonist	CHO-K1 expressing human KOR			EC50	> 10000 nM
CCC(c1ccc(-c2ccc(F)c(F)c2)cc1F)n1ccnc1 (centres unmarked)	cyp121	binding				Kd	5000 ± 1500 nM
NC[C@@H](NC[C@@H]1CCCN1C[C@@H](CO)NC[C@@H](NCCC12CC3CC(CC(C3)C1)C2)c1ccccc1)c1ccccc1	Escherichia coli	bacterial growth		8 µM, fold shift of IC90, with: amikacin		potentiation of amikacin	1 fold
CCc1ccc(CCN)cc1	Slc6a3	dopamine release, releaser	rat brain synaptosomes			EC50	2090 ± 195 nM

Repeated from above:
Structure (SMILES)	target or system	assay	test system	conditions	how to read	measurement	result
COCc1ccc(C(=O)OC2=C[C@@H](C(=O)OC)[C@]3(C)CC[C@H]4C(=O)O[C@H](c5ccoc5)C[C@]4(C)[C@H]3C2=O)cc1	OPRK1	forskolin-induced cAMP inhibition, agonist	CHO-K1 expressing human KOR			EC50	> 10000 nM
CC(C)C[C@H](NC(=O)[C@@H]1C[C@@H](O)CN1C(=O)[C@@H]1CSSC[C@H](NC(=O)[C@@H](NC(=O)[C@@H]2CCCN2)C(C)C)C(=O)N[C@H](Cc2c[nH]c3ccccc23)C(=O)N[C@@H](CCCCN)C(=O)N[C@@H](Cc2ccccc2)C(=O)NCC(=O)N1)C(=O)O	Somatostatin receptor type 1 (SSTR1, Homo sapiens, UniProt P30872)	β-arrestin recruitment, agonist				EC50	3800 nM
c1ccc(-c2ccc(Cn3ccnc3)s2)cc1	cyp121	binding				Kd	19600 ± 4400 nM
